# Published values from different studies.
# Every numbered part comes from another study and shows a few of its results, in no order. Substitutions count along the parent as printed.

# Set 1
# Target: ABI1, truncated, D143A, DHFR fusion (Arabidopsis thaliana)
# Technique: DHFR PCA, deep sequencing
# Matrix: yeast
# Notes: methotrexate growth selection, single substitutions
# With: (+)-ABA 0.11 µM
# Baseline: wild-type fitted maximum
# Reading: higher = stronger binding
# Parent: PYL1, truncated, DHFR fusion (Arabidopsis thaliana); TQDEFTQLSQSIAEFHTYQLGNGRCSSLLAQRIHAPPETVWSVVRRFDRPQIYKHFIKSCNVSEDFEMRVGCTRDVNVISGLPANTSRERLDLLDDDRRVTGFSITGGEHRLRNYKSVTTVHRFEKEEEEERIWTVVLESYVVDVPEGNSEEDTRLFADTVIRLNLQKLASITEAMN
Substitution,relative binding score [%]
A13E,45
N114S,-2.04
R24C,10.6
G108S,0.285
D159E,8.46
R111V,9.77
R45P,-4.8
F66K,13.1
V137W,-2.45
S87L,35.9
L91Q,-5.6
K168E,-0.53
E129P,52
R163S,20.9

# Set 2
# Target: RING finger protein unkempt homolog, zinc fingers 1-6, GST-SBP tag (UNK, Homo sapiens, UniProt Q9C0B0, residues 30-357)
# UniProt Q9C0B0, sequence (30-357, looked up): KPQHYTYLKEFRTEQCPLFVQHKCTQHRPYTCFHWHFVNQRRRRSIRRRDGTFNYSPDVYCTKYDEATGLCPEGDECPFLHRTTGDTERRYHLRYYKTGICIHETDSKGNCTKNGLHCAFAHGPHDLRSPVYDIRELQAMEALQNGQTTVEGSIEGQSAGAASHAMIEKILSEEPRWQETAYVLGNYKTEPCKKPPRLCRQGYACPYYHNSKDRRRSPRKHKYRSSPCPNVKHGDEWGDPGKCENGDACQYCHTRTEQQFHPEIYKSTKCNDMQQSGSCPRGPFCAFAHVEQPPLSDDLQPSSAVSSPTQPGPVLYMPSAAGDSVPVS
# Technique: RNA Bind-n-Seq
# Form: RNA
# Matrix: in vitro
# Tested at: not given
# Notes: RNA with constant flanks, human and mouse sites, ends assumed
# Baseline: input RNA pool
# Reading: higher = stronger binding
# All sequences stand within: GGGAGUUCUACAGUCCGACGAUC … CAACAGAGGAUUGAGCAUCA
Sequence,bound/input enrichment [ratio]
GAUGAGCAUUCUUAUUUUUUGUUUUGUUUGCCCCAUUUCCUUUUGUGUUUUUAUAGUCUAUAGCAUUUUAAAACUGCUGAUGUUGUUUGCAUUAUUUACAGGCUAAAAACUUAGUAGCAU,2.62
AGUGAAAGACUCUUUUAUUAUAUUGCUGUCUCUUUGUUACCCCAUGAGACUUUGCUAGAGAUUGAAAAUGCAGUGGAGAGCGGCCGGGCACUGCUACCCAUUCUCCAGUGGCACAAGCAC,0.605
AAUAAGGAAAAGUAUGGCAAACCAAAUAAAAGAAAAGGUUUUAAUGAAGGUUUAUGGGAGAUAGAUAACAAUCCAAAAGUGAAAUUUUCAAGUCAACAGGCAGCAACUAAACAAUCAAAU,0.695
CGGAAGAAAGAUACAAAUAAAAGCAUCAAGCAUUGCACAGUUCUCUCCAAUAAUGUAGAUCAUCUUUUACUGAACUUAACACUGUCUGAUAUCAUGGUCUCGCUGGCAAAUGCUUCAACC,0.25
CUUCCGGGAGGUGCUUGUGUGCCUGGUGCGGGAGCUACGGGGCCCAGGGAUUGUGUUUAAAGUAGUGCUUCUACCAACAUGUCCCGUGGUUCCAGCGCCGGUUUUGACCGCCACAUUACC,0.102
UGUUUCCUGAUCCAGCCGGAACCUGUGGUGGGUAGCAAGAUGCAUAAGGUGCAUGACCUGUUCACCCUCGGCAGCGGGGAAGCCAUGUUGCAGCUCAUCCCUCCCUUCCAGUGCCGAACA,0.119
ACUGUGGCAUAUACAGAGCAAAAAAUGACCAGUGGCAAAAUUAAAAAGUUUAUCCAGGAAAACAUUUUUGGUAUCUGCCCUCACAUGACAGAAGACAAUAAAGAUUUGAUACAGGGCAAG,0.636
UGUCUCCACUCAGUGACGUGGGAUUUUUUUGUCUUCCUUUUGGCUUUAUUUUUAAACUGCUUUAGAUAUUACUGCUCAGUGUUUGUGAACUUUCCUAGUUCUCUAUGUUGUUAGUGCAGC,7.97
CUGAAGGCUCUAGAGAGGCUUGAGGGUGUGGAGGGCGUGGCCCACAUAAUUGACCCCAAGGCCAUCAGCAAAGACCACCUCUACGGAACCUUGGAUCCCAACACCAGGGAGUGGACAGAC,0.174
AAACAAAAAGAAAAAGAAAAAGAAAAAGAAAAAGUUAAAAAAUAAAUAUAAGAGGGAUAAUUUGAUGGUAAUAGUAUCCCAGUACAAAAAGGCUGUAAGAUAGUGAACCACAGUAGUCAU,6.13
AAGACUGUCGACCUAAAGCCUGACUGGGGCAAGGGCUAUUCACGAAAAGCAGCAGCUCUAGAGUUCUUAAACCGCUUUGAAGAAGCCAAGCGAACCUAUGAGGAGGGCUUAAAACACGAG,0.13

# Set 3
# Target: Histone acetyltransferase KAT6A, both winged helices, GST fusion (KAT6A, Homo sapiens, UniProt Q92794, residues 1-181)
# Technique: protein binding microarray
# Form: double-stranded DNA, one strand shown
# Matrix: in vitro
# Tested at: not given
# Notes: 8-mer, flanks averaged, mean of 2 arrays, mostly near background
# Baseline: not given
# Reading: higher = stronger binding
# Construct (chain): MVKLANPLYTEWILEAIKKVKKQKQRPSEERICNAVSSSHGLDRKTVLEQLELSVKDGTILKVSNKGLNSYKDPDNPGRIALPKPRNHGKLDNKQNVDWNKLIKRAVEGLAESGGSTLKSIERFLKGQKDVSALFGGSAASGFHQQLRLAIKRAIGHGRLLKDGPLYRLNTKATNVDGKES
Sequence,E-score
ACCACAAA,-0.0197
CACGGTAA,0.183
ATAAAAAG,-0.177
ATTTCAGA,-0.0461
AGCGTCAT,0.0631
ACGCGATG,0.173
CAGAGCCG,0.133
AAAGGTAA,-0.246
AGTAGCAA,0.0582
TCGTTCAA,0.0155
CAGGATTA,-0.094
GACAGTAC,-0.0512
ATGCTTTC,-0.0326
AGCAGACA,-0.23
ATGATCGG,0.0217
GAGCTTCC,0.102

# Set 4
# Target: POU domain, class 5, transcription factor 1, POU domain (Pou5f1, Mus musculus, UniProt P20263, residues 131-289)
# UniProt P20263, sequence (131-289, looked up): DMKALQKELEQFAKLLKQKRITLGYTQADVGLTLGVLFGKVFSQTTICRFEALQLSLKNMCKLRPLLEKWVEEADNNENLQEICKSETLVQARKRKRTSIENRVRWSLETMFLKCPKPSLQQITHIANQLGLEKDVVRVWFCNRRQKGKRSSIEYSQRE
# Technique: Spec-seq
# Form: double-stranded DNA, one strand shown
# Matrix: in vitro
# Tested at: not given
# Notes: whole probe, mean of replicates
# Baseline: not given
# Reading: lower = stronger binding
# All sequences stand within: GAGTCGTCTCGTCAGCACA … CCGTAGAGCACTCAGGTC
Sequence,relative binding energy [ln ratio]
TGTTTAT,-0.32
TGCGTGG,0.241
TTAGGAT,0.261
TCGGTAT,0.593
TGCCGTT,0.643
AAATAAT,0.0986
TAGTAAT,0.4
TGCCGAT,0.61
TTGATAT,-0.00501
TCCCCAT,0.398
TGCATGT,-0.728
TGCGACA,0.156
TACCCAT,0.167
TAGAGAT,0.663
TGCTTTC,0.467

# Set 5
# Target: RNA binding protein fox-1 homolog 2, RRM domain, GST-SBP tag (RBFOX2, Homo sapiens, UniProt O43251-10, residues 100-194)
# Technique: RNA Bind-n-Seq
# Form: RNA
# Matrix: in vitro
# Tested at: 365 nM
# Notes: natural RNA segment, single round, ends assumed
# Baseline: no-protein control
# Reading: higher = stronger binding
# All sequences stand within: GGGAGUUCUACAGUCCGACGAUC … UGGAAUUCUCGGGUGCCAA
# Target sequence (chain): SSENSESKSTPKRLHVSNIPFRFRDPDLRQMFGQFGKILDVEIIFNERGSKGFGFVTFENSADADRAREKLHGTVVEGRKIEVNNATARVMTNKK
Sequence,RBNS enrichment (R)
GUUCUGGGACAGUGUCAAAAUGGAAUAACCUGGCAUAAAGCUGAAUUAUCUGAGGAAACUCAAUGGGUAUGAAGAUGAUCAAUUCUGUAAGCCUUGUGGCUGUGCUGUCA,0.3
CCAUUCCCUAGCCAGCUCCACCCUUGAUGAAACUGUGGCUAAUGUUCCUUCACUAGGACAGGCACCAUGAGUGUGUUUCUAAGUUCCAGAGUCUGUGGGGAGGAUGGUGG,0.473
CCAAUUGUGGACUUAAAUUAGUCAAAUUGAGAGUUACUGAGUCCAUUCAGAUCUCCAGUAGGGUUUUGUAUCUAAUGUAUUUGGCCACCAGUUUUACAUGUAGGUCAUGA,0.491
UUUCUUGUACAUUUGUGUCUCCCUUCCCAACUAGACUGUAAGUGCCUUGCGGUCAGGGACUGAAUCUUGCCCGUUUAUGUAUGCUCCAUGUCUAGCCCAUCAUCCUGCUU,2.57
CUGCUUGGAGAAGGCCCAGGGGUGUCCUCAUGGGGACUUCUGGAACAGACAGCCUUCUGACCCCUGUGCGUCUGCCACGUGCUGGGUGUGCCUUACUCAUAGGGCUCAGG,0.499
ACUGAGGAUUCGCUUGGGAACGGGCAGGUGGUAGUAGGGGCGCCAGCUUGGGCUCUCCUGGCGCCCCGUAGCAUCGAGUGUCUUCUUUGUCUUCUUUCUCUCCUCACCCA,0.77
UCUUCCAUCUGUUUCCUUCCAUUUGCAUAUCUCCAGUAUCCAAAUACCUCCGUCUGACUCCUCAUUCUUCUGCAUUCUUGUACACUCCAUCAGUCAUCUAACAACAAAGA,1.95
GAGGAGAAUGUGUGCUGGGCUAUGGGAGCCAUGUUCAGAGAUUUGUGUGUGUGUGCCAGAGUAGCUGCAUUCUGAUUCACUAAUCCCUCAUUUUAAUGUGUGCCUUAUGC,1.77
ACCUCUCUCCUCUCCCCUCACCCUCCUGCCCCUGGCCACUGCAGGAUCAGGAGGGGAGAAGAAGGAGCCUCUGCUGCCUCCCAGGCUGCUGGGACUGGGCUGGUUUUGUC,0.434
UCGUCUUUGUUUCAGUUAAGCUCAAUGGCGAACAUGGGAACCACCUUUCGCCUUCCCUGGGGGAGAAACCCUCUUGGCUGAUGGCUUUUCCCCGGAAUUAUCAAACAGCC,0.3
AUGCUAGUAGAAUCUAGUUUAAUUGUUUCAGGUGGAAAGUAUUCUUUGAGUUUCCAUAUUGAAUGUGUUUGGACUAAACAAACAAUAAACUACUGAUGUCUGCAGCAUUU,1.02
UUGCCUGCCUCGGUUGGGGAAACCUAGUGGUUUUGUCACACUAGUCGAUGUAUGAUGUUAGUGUUGUAAGACACCAUGGCAGAAUCUUCAUUAUUCUCACCUAUUCUGAA,1.31

# Set 6
# Target: CCND3, cyclin fold, Cln2 fusion (human)
# Technique: yeast growth competition, sequencing
# Matrix: yeast
# Notes: weak parent motif
# Baseline: not given
# Reading: higher = stronger binding
# Parent: HIRA docking peptide (human); SLSKRKLELEVET
Substitution,normalised enrichment score
SLSKRKLELAVET [E10A],0.051
SLSKRKLELEVEA [T13A],0.152
SLSKRKLEAEVET [L9A],0.0711
SLSKKKLELEVET [R5K],0.0467
SLSKRALELEVET [K6A],0.142
ALSKRKLELEVET [S1A],0.113
SLAKRKLELEVET [S3A],-0.0208

# Mixed results
Molecule,target,test,system,setting,scale,measurement,result
"PhoQ, residues 284 288 289 292 302 303 SCEHLI","PhoP, residues 12 14 15 18 19 NMSSL (Escherichia coli, UniProt P23836)","Sort-seq, measured: YFP reporter",E. coli,"PhoQ-PhoP variant library, with: 10 µM Mg2+","baseline: high Mg2+ state, higher = stronger signaling",fold induction,0.137
